Experimental data gathered from unrelated publications.
Compare with care: the assays were run in different laboratories. Numbers after ± are the reported error.

Structure (SMILES)	test	test system	setting	how to read	IC50
CCCCn1cc(C(=O)O)c(=O)c2cc(F)c3c(nnn3-c3ccc(OC)cc3)c21	DPPH radical scavenging		30 min		79.4 ± 8.7 µg/mL
CC1OC(OC2C(c3c(O)cc(O)c4c(=O)cc(-c5ccc(O)cc5)oc34)OC(CO)C(O)C2O)C(O)C(O)C1O (centres unmarked)	AGE formation	BSA-fructose model			75.39 ± 0.41 µM
CCCCn1cc(C(=O)O)c(=O)c2cc(F)c(Nc3cc(OC)c(OC)c(OC)c3)c([N+](=O)[O-])c21	DPPH radical scavenging		30 min		313 ± 13.9 µg/mL
CCCCCCCCCCCCCCCCCCCCCCCCCCCCCCOC(=O)/C=C/c1ccc(O)cc1	DPPH radical scavenging		30 min		89.1 ± 24.9 µg/mL
CCCCSc1nnc(-c2ccccc2Cl)o1	nitric oxide scavenging				63.9 ± 4.4 µM
NS(=O)(=O)c1ccc(/N=N/c2ccc(O)c(/C=N/c3cc([N+](=O)[O-])ccc3O)c2)cc1	DPPH radical scavenging		60 min		14.3 ± 0.63 µM
CC(=O)C1=C(C)NC(=O)NC1c1ccc(C)cc1 (centres unmarked)	nitric oxide scavenging				268 µM
CCCCSc1nnc(-c2ccc(C(C)(C)C)cc2)o1	H2O2 scavenging				50 ± 3.1 µM
CCCCn1cc(C(=O)O)c(=O)c2cc(F)c3c(nnn3-c3ccccc3OC)c21	DPPH radical scavenging		30 min		3240 ± 364 µg/mL
O=[N+]([O-])c1ccc(Cl)c(-c2nnc(S)o2)c1	nitric oxide scavenging				47.7 ± 1.1 µM
CC[C@H]1OC(=O)[C@H](C)C(=O)[C@H](C)[C@@H](O[C@@H]2O[C@H](C)C[C@H](N(C)C)[C@H]2O)[C@](C)(OC)C[C@@H](C)C2=NCCN3C(=O)O[C@@]1(C)[C@H]3[C@H]2C	translation, luciferase reporter	rabbit reticulocyte lysate			> 250 µM
CONC(=O)[C@H]1[C@@H](O)[C@@]2(O)c3c(cc(OC)nc3OC)O[C@@]2(c2ccc(C#N)cc2)[C@@H]1c1ccccc1	cap-dependent translation, FLuc reporter	Krebs-2 cell extract			0.043 ± 0.004 µM
CC(=O)C1=C(C)NC(=O)NC1c1ccc(Cl)cc1 (centres unmarked)	nitric oxide scavenging				139 µM
Nc1ccc(-c2nnc(S)o2)cc1	superoxide scavenging, pyrogallol				50.8 ± 2.2 µM
CC(=O)[O-].[Cu+2].[O-]c1ccc(Br)cc1C=NCCN1CCOCC1	superoxide scavenging				200 µM
C[n+]1cn([C@@H]2O[C@H](COP(=O)([S-])OP(=O)(O)OP(=O)(O)OC[C@H]3O[C@@H](n4cnc5c(NCCCCCCN)ncnc54)[C@H](O)[C@@H]3O)[C@@H](O)[C@H]2O)c2nc(N)nc(O)c21 (mixture of isomers)	cap-dependent translation	rabbit reticulocyte lysate	1 h preincubation, with: capped luciferase mRNA		10.8 ± 1.7 µM
COc1ccc(C2NC(=O)NC(C)=C2C(C)=O)cc1 (centres unmarked)	ferric reducing power, FRAP				30.7 µM
CCCCSc1nnc(-c2cc(Cl)ccc2Cl)o1	nitric oxide scavenging				89.9 ± 1.3 µM
CC(=O)c1cnc(N)nc1N1CC[C@H]1c1nn2ccc(Cl)c2c(=O)n1-c1ccccc1	Th17 differentiation, refers to: IFNγ	healthy donor whole blood			0.07 µM

Structure (SMILES)	test	test system	setting	how to read	IC50
C#CCNC(=O)CNC(=O)CNC(=O)[C@H](Cc1ccc(O)cc1)NC(=O)[C@H](Cc1c[nH]cn1)NC(=O)[C@H](Cc1ccccc1)NC(=O)[C@H](Cc1c[nH]cn1)NC(=O)[C@H](CC(C)C)NC(=O)[C@H](Cc1c[nH]cn1)NC(=O)[C@H](Cc1ccccc1)NC(=O)[C@@H](N)Cc1ccccc1	translation, luciferase reporter	Escherichia coli S30 extract			> 1000 µM
NS(=O)(=O)c1ccc(/N=N/c2ccc(O)c(/C=N/c3ccccn3)c2)cc1	DPPH radical scavenging		60 min		15.2 ± 1.77 µM
CC(=O)C1=C(C)NC(=O)NC1c1ccc(F)cc1F (centres unmarked)	ferric reducing power, FRAP				116 µM
C[n+]1cn([C@@H]2O[C@H](COP(=O)(O)OP(=O)([O-])OP(=O)(O)OC[C@H]3O[C@@H](n4cnc5c(NCCCCCCN)ncnc54)[C@H](O)[C@@H]3O)[C@@H](O)[C@H]2O)c2nc(N)nc(O)c21	cap-dependent translation	rabbit reticulocyte lysate	1 h preincubation, with: capped luciferase mRNA		23.9 ± 5.5 µM
CC(C)(C)c1ccc(-c2nnc(S)o2)cc1	superoxide scavenging, pyrogallol				83.2 ± 3.2 µM
NS(=O)(=O)c1ccc(/N=N/c2ccc(O)c(/C=N/c3cccc(O)c3)c2)cc1	DPPH radical scavenging		60 min		14 ± 1.22 µM
CC[C@H](C)[C@H](NC(C)=O)C(=O)N[C@H]1CSSC[C@@H](C(=O)N[C@@H](CC(C)C)C(N)=O)NC(=O)[C@H](CCCNC(=N)N)NC(=O)[C@H](Cc2c[nH]cn2)NC(=O)[C@H](C)NC(=O)CN(C)C(=O)[C@H](Cc2c[nH]c3ccccc23)NC(=O)[C@H](CC(=O)O)NC(=O)[C@H](CCC(N)=O)NC(=O)[C@H](Cc2cn(C)c3ccccc23)NC(=O)[C@H](C(C)C)NC1=O	complement activation, ELISA, refers to: C3 fragment deposition	human serum	classical pathway		0.108 µM
CCCCCCCCCCCCCCCCCCCCCCCC(=O)OCC(O)CO (centres unmarked)	DPPH radical scavenging		30 min		875 ± 462 µg/mL
C#CCNC(=O)CNC(=O)CNC(=O)[C@@H]1CCCN1C(=O)[C@H](CC(=O)O)NC(=O)CNC(=O)[C@H](CCCNC(=N)N)NC(=O)[C@H](CC(=O)O)NC(=O)CNC(=O)[C@H](CCCNC(=N)N)NC(=O)[C@H](CC(=O)O)NC(=O)CNC(=O)[C@H](CCCNC(=N)N)NC(=O)[C@H](CC(=O)O)NC(=O)CNC(=O)[C@@H](N)CCCNC(=N)N	translation, luciferase reporter	Escherichia coli S30 extract			> 250 µM
O=C(N[C@@H](Cc1ccc(OCCCCC2CCNCC2)cc1)C(=O)O)c1nc2ccccc2o1	clot retraction, inhibitor	human platelet-rich plasma	with: thrombin		93.5 ± 37.5 µM
C[n+]1cn([C@@H]2O[C@H](COP(=O)([S-])OP(=O)(O)OP(=O)(O)OC[C@H]3O[C@@H](n4cnc5c(=O)[nH]c(N)nc54)[C@H](O)[C@@H]3OC(=O)NCCCCCCN)[C@@H](O)[C@H]2O)c2nc(N)nc(O)c21 (mixture of isomers)	cap-dependent translation	rabbit reticulocyte lysate	1 h preincubation, with: capped luciferase mRNA		6 ± 0.8 µM
CC(=O)C1=C(C)NC(=O)NC1c1cccc(Br)c1 (centres unmarked)	ferric reducing power, FRAP				107 µM
CC[C@H](C)[C@H](NC(C)=O)C(=O)N[C@H]1CSSC[C@@H](C(=O)N(C)[C@H](C(N)=O)[C@@H](C)CC)NC(=O)[C@H](CCCNC(=N)N)NC(=O)[C@H](Cc2c[nH]cn2)NC(=O)[C@H](C)NC(=O)CN(C)C(=O)[C@H](Cc2c[nH]c3ccccc23)NC(=O)[C@H](CC(=O)O)NC(=O)[C@H](CCC(N)=O)NC(=O)[C@H](Cc2cn(C)c3ccccc23)NC(=O)[C@H](C(C)C)NC1=O	classical complement activation, inhibitor, C3b deposition ELISA	normal human plasma	15 min, plasma 1:80		0.13 ± 0.04 µM
COc1cccc(C2NC(=O)NC(C)=C2C(C)=O)c1 (centres unmarked)	nitric oxide scavenging				259 µM
CCCCSc1nnc(-c2ccc(N)cc2)o1	superoxide scavenging, pyrogallol				41 ± 1.9 µM
CC(=O)C1=C(C)NC(=O)NC1c1cccc(C)c1 (centres unmarked)	ferric reducing power, FRAP				221 µM
Sc1nnc(-c2ccccc2)o1	superoxide scavenging, pyrogallol				165 ± 3.2 µM
BP(=O)(OP(=O)([O-])OC[C@H]1O[C@@H](n2c[n+](C)c3c(=O)[nH]c(N)nc32)[C@H](O)[C@@H]1O)OP(=O)([O-])OC[C@H]1O[C@@H](n2c[n+](C)c3c(=O)[nH]c(N)nc32)[C@H](O)[C@@H]1O	cap-dependent translation, inhibitor	rabbit reticulocyte lysate	pre-incubated 60 min before mRNA	relative to: m7GpppG	2.76 µM
CC(=O)C1=C(C)NC(=O)NC1c1ccc(Br)cc1 (centres unmarked)	nitric oxide scavenging				112 µM

Some of these lines once more:
Structure (SMILES)	test	test system	setting	how to read	IC50
C[n+]1cn([C@@H]2O[C@H](COP(=O)([S-])OP(=O)(O)OP(=O)(O)OC[C@H]3O[C@@H](n4cnc5c(=O)[nH]c(N)nc54)[C@H](O)[C@@H]3OC(=O)NCCCCCCN)[C@@H](O)[C@H]2O)c2nc(N)nc(O)c21 (mixture of isomers)	cap-dependent translation	rabbit reticulocyte lysate	1 h preincubation, with: capped luciferase mRNA		6 ± 0.8 µM
Sc1nnc(-c2ccccc2)o1	superoxide scavenging, pyrogallol				165 ± 3.2 µM
